Measurements collected from several papers.
Compare with care: the assays were run in different laboratories. Values joined by “and” are separate records of one study, mostly repeats; a detail may differ. Numbers after ± are the reported error.
Organism: Cryptosporidium parvum

The EC50 of `COc1ccc(NC(=O)N2CCCCN3[C@H](COCCC(=O)O)[C@H](c4ccc(C#Cc5ccccc5)cc4)[C@@H]3C2)cc1` is reported as 2 nM (parasite growth; Iowa (Sterling)).
`COc1ccc(CNc2nc(-c3ccc(C(=O)O)cc3)nc3c2c2ccccc2n3C)cc1Cl` has an EC50 of 870 nM (parasite growth, immunofluorescence microscopy; HCT-8, Iowa; 48 h post infection, compound added at 3 h).
`COc1ccc(NC(=O)N2CCCCN3[C@H](CN(C)C)[C@H](c4ccc(C#Cc5ccccc5)cc4)[C@@H]3C2)cc1` — result for “time to eliminate parasites”: about 95 h (HCT-8; concentration not given, 99.9% elimination).
Under “relative parasite number”, `NC(N)=O` is recorded as 0.998 ± 0.072 (image-based; HCT-8; 1 mM, 24 h post-infection; reference: PBS).
With `COc1ccc(NC(=O)N2CCCCN3C[C@H](c4ccc(C#Cc5ccccc5)cc4)[C@@H]3C2)cc1` the EC50 was 96 nM (growth inhibition; WSU field isolate).
`CCCc1nn(C)c2c(=O)[nH]c(-c3cc(S(=O)(=O)N4CCN(C)CC4)ccc3OCC)nc12` has an inhibition of -8.39% and -2.6% (parasite growth, immunofluorescence imaging; HCT-8, Iowa; 222 nM).
For `CC(O)CN` (stereo not shown), “relative parasite number” read 0.957 ± 0.104 (image-based; HCT-8; 1 mM, 24 h post-infection; reference: PBS).
`O=C(Cc1ccc(Cl)cc1)N1CCN(c2ccc3nncn3n2)CC1` has an EC50 of 660 nM (high-content imaging; HCT-8).
For `CN1CCC[C@H]1C(=O)O`, “relative parasite number” read 1.01 ± 0.155 (image-based; HCT-8; 1 mM, 24 h post-infection; reference: PBS).
With `O=C1NC(=O)/C(=C/c2ccc3ncnc(N4CCC(F)(F)CC4)c3n2)S1` the EC50 was 130 nM (parasite growth, immunofluorescence microscopy; HCT-8, Iowa; 48 h post infection, compound added at 3 h).
For `Cc1ccc(C(=O)c2cc(O)c(O)c([N+](=O)[O-])c2)cc1`, EC50 read “no effect” (parasite growth; HCT-8; 44 h).
With `Cc1cc(CC(=O)N2CCN(c3ccc4nncn4n3)CC2)ccc1F` the EC50 was 350 nM (high-content imaging; HCT-8).
`NCCCN` — result for “relative parasite number”: 1.01 ± 0.151 (image-based; HCT-8; 1 mM, 24 h post-infection; reference: PBS).
The EC50 of `O=C(Cc1ccc(F)cc1)N1CCN(c2ccc3nncn3n2)CC1` is reported as 860 nM (high-content imaging; HCT-8).
`COc1ccc(NC(=O)N2CCCCN3[C@H](CN(C)S(C)(=O)=O)[C@H](c4ccc(C#Cc5ccccc5)cc4)[C@@H]3C2)cc1` gave an EC50 of 6 nM (growth inhibition; WSU field isolate).
`C[C@H](CCC(=O)O)[C@H]1CC[C@H]2[C@@H]3CC[C@@H]4C[C@H](O)CC[C@]4(C)[C@H]3C[C@H](O)[C@]12C`: “parasite growth ratio” 0.557 ± 0.185 (HCT-8; 0.1 mM, 24 h; reference: PBS).
`O=C(Cc1cc(Cl)cc(C(F)(F)F)c1)N1CCN(c2ccc3nncn3n2)CC1`: “potency fold increase” 2 fold (parasite growth, high-content microscopy; HCT-8; reference: 3,5-dichloro analogue over compound EC50).
For `CCC(C)C(=O)C(=O)[O-].[Na+]` (stereo not shown), “relative parasite number” read 0.927 ± 0.078 (image-based; HCT-8; 1 mM, 24 h post-infection; reference: PBS).
`O=C(Cc1cccc(-c2ccccc2)c1)N1CCN(c2ccc3nncn3n2)CC1` gave an EC50 of over 25000 nM (high-content imaging; HCT-8).

Excerpt of the above:
For `CN1CCC[C@H]1C(=O)O`, “relative parasite number” read 1.01 ± 0.155 (image-based; HCT-8; 1 mM, 24 h post-infection; reference: PBS).
With `O=C1NC(=O)/C(=C/c2ccc3ncnc(N4CCC(F)(F)CC4)c3n2)S1` the EC50 was 130 nM (parasite growth, immunofluorescence microscopy; HCT-8, Iowa; 48 h post infection, compound added at 3 h).
